# Experimental data pooled from the literature.
# Every numbered part comes from another study and shows a few of its results, in no order. Changes are numbered by the printed parent chain.

# Block 1 — technique: protein binding microarray; form: double-stranded DNA, one strand shown; matrix: in vitro; concentration: not given; baseline: not given; direction: higher = stronger binding
# Target: Histone acetyltransferase KAT6A, both winged helices, GST fusion (KAT6A, Homo sapiens, UniProt Q92794, residues 1-181)
# Notes: 8-mer, flanks averaged, mean of 2 arrays, mostly near background
# Residues (chain): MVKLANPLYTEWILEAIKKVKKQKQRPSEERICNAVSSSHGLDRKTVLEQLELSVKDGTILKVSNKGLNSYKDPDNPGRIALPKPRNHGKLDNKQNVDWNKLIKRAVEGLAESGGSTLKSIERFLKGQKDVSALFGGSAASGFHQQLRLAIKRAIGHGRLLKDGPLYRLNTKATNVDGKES
Oligonucleotide,E-score
CTCGATCA,0.00054
CGCGTATA,0.251
AGCACATG,-0.0404
CGAAGAAA,-0.0715
CCTATCAA,-0.103
CTGGTCTA,-0.0691
GTCTGAAA,-0.0759
AACCAGAC,-0.107
GAAGGTTA,-0.00928
TGATACAA,-0.0505
CAGTTGCC,0.0242
ACTTAAAA,0.0049
CGTAAACG,0.219
ATAGACAG,-0.113
ACACCTCG,-0.00886
ACGTCGAC,-0.00415
CGTTTTAG,0.0157
CGCGTACA,0.306
ATAGTGCG,0.223
AAACTCTC,-0.0921
TCTTCCCA,-0.204
AGATGGTA,-0.128
CTTGTAAA,-0.105
CATGGCAA,-0.147
CTCGTGTC,-0.0541

# Block 2 — target: CCNE2, cyclin fold, Cln2 fusion (human); technique: yeast growth competition, sequencing; matrix: yeast; notes: weak parent motif; baseline: not given; direction: higher = stronger binding
# Parent: E2F7 docking peptide (human); SSAQRRLEIPSGG; partner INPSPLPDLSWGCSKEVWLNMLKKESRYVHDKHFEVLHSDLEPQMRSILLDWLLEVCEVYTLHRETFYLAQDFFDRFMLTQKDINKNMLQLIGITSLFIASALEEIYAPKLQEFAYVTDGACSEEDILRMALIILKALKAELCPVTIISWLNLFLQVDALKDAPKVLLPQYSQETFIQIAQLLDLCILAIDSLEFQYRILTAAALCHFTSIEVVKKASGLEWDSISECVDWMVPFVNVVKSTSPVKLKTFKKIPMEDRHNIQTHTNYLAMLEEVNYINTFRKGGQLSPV
Substitution,normalised enrichment score
SSAQKRLEIPSGG [R5K],-0.315
SSAQRRLELPSGG [I9L],0.451
SSAQRRLEIASGG [P10A],-0.108
SAAQRRLEIPSGG [S2A],-0.0138
SSAQRRLEIPAGG [S11A],-0.132
SSAQRRLEIPSGA [G13A],0.393
SSAQRRLEIPSAG [G12A],-0.156
SSAARRLEIPSGG [Q4A],0.663

# Block 3 — target: UBE2R2 UBC core domain (UniProt Q712K3); technique: yeast two-hybrid; matrix: yeast; notes: mostly zero background; baseline: not given; direction: higher = stronger interaction
# B1: RNF182 RING domain (UniProt Q8N6D2); chain AESQASDELECKICYNRYNLKQRKPKVLECCHRVCAKCLYKIIDFGDSPQGVIVCPFCRFETCLPDDEV
# B2: RING1 RING domain (UniProt Q06587); chain SPRSLHSELMCPICLDMLKNTMTTKECLHRFCSDCIVTALRSGNKECPTCRKKLVSKRSLR
# B3: MID2 RING domain (UniProt Q9UJV3); chain KMETLESELTCPICLELFEDPLLLPCAHSLCFSCAHRILVSSCSSGESIEPITAFQCPTCRYVISLNHRGL
# B4: RNF103 RING domain (UniProt O00237); chain WPADMLHCTECVVCLENFENGCLLMGLPCGHVFHQNCIVMWLAGGRHCCPVCRWPSYKKKQPY
# B5: CNOT4 RING domain (UniProt O95628); chain MSRSPDAKEDPVECPLCMEPLEIDDINFFPCTCGYQICRFCWHRIRTDENGLCPACRKPYPED
# B6: MARCHF1 RING domain (UniProt Q8TCQ1); chain TAPRSQSRLSVCPSTQDICRICHCEGDEESPLITPCRCTGTLRFVHQSCLHQWIKSSDTRCCELCKYDFIMETKLKPLRKWE
# B7: HLTF RING domain (UniProt Q14527); chain LILSSGSDEECAICLDSLTVPVITHCAHVFCKPCICQVIQNEQPHAKCPLCRNDIHEDNLLE
# Target sequence (chain): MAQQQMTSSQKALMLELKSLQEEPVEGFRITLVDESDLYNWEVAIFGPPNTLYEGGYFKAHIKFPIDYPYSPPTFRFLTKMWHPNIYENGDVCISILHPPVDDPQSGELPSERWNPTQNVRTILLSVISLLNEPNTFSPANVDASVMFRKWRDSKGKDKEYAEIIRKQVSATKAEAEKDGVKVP
Molecule,lacZ reporter activity
B1 (RNF182 RING domain),0
ASPKIFQKTKCSICNSALELPSVHFLCGHSFHQHCFESYSESDADCPTCLPENRKVMDMI (VPS11 RING domain (UniProt Q9H270)),0
B2 (RING1 RING domain),0
B3 (MID2 RING domain),0
B4 (RNF103 RING domain),0
B5 (CNOT4 RING domain),0
LVKDFNPYITCYICKGYLIKPTTVTECLHTFCKTCIVQHFEDSNDCPRCGNQVHETNPLE (PCGF5 RING domain (UniProt Q86SE9)),0
B6 (MARCHF1 RING domain),0
LEALSSDFLACKICLEQLRAPKTLPCLHTYCQDCLAQLADGGRVRCPECRETVPVPPEGV (TRIM56 RING domain (UniProt Q9BRZ2)),0
B7 (HLTF RING domain),0
FAEQPSVKLCCQLCCSVFKDPVITTCGHTFCRRCALKSEKCPVDNVKLTVVVNNI (TRAF7 RING domain (UniProt Q6Q0C0)),0

# Block 4 — technique: aptamer microarray, sandwich; form: DNA with 2'F-ANA; matrix: in vitro; concentration: 200 nM; added: Cy3 exosite-II aptamer, 400 nM; direction: higher = stronger binding; oligonucleotide: GGTTGGTGTGGTTGG
# Target: Prothrombin, mature alpha-thrombin (F2, Homo sapiens, UniProt P00734)
# Notes: whole 15-mer aptamer, many near background
Modification,mean fluorescence intensity
2'F-ANA at 2 7 8 15,560 a.u.
2'F-ANA at 6 9 11 14 15,133 a.u.
2'F-ANA at 6 7 12 15,750 a.u.
2'F-ANA at 4 6 7 9 11 12 13,225 a.u.
2'F-ANA at 2 3 5 8 9 10 11 12 14 15,51.7 a.u.
2'F-ANA at 2 6 7 8 9 10 12 14,99.9 a.u.
2'F-ANA at 1 4 6 9 10 11 12 15,55.2 a.u.
2'F-ANA at 2 10 11 14,78.6 a.u.
2'F-ANA at 3 5 7 8 9 10 14 15,52.4 a.u.
2'F-ANA at 1 2 3 4 7 8 9 10 11 14 15,50.2 a.u.
2'F-ANA at 1 2 6 8 9 12 13 14,60.9 a.u.
2'F-ANA at 2 4 6 12 13 14 15,94.2 a.u.
2'F-ANA at 2 3 4 5 7 9 10 12 13,51 a.u.
2'F-ANA at 1 2 3 4 5 6 9 10 11 13 15,51.1 a.u.
2'F-ANA at 1 6 7 11 12 13 14,202 a.u.
2'F-ANA at 1 4 6 8 9 11 12 13 15,213 a.u.
2'F-ANA at 1 2 3 5 10 12,45.4 a.u.
2'F-ANA at 1 4 6 7 8 9 11 13,98.2 a.u.
2'F-ANA at 2 4 5 6 8 10 11 12 13 15,56.9 a.u.
2'F-ANA at 1 3 4 5 7 9 10,48.3 a.u.
2'F-ANA at 2 5 6 9 10 12 13 14,45.9 a.u.
2'F-ANA at 1 4 5 6 9 10 13 14,69.3 a.u.
2'F-ANA at 3 4 7 9 10 14,200 a.u.
2'F-ANA at 2 3 7 9 10 11 12 13 14 15,257 a.u.
2'F-ANA at 1 2 3 4 5 7 8 10 11 13 14,47.2 a.u.

# Block 5 — technique: DHFR PCA, deep sequencing; matrix: yeast; added: (+)-ABA 2500 µM; baseline: wild-type fitted maximum; direction: higher = stronger binding
# Target: ABI1, truncated, D143A, DHFR fusion (Arabidopsis thaliana)
# Notes: methotrexate growth selection, single substitutions
# Parent: PYL1, truncated, DHFR fusion (Arabidopsis thaliana); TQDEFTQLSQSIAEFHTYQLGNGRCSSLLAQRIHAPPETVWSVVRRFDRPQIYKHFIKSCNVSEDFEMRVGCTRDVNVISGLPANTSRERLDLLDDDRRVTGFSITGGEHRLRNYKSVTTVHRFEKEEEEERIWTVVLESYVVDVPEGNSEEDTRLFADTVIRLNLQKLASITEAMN; partner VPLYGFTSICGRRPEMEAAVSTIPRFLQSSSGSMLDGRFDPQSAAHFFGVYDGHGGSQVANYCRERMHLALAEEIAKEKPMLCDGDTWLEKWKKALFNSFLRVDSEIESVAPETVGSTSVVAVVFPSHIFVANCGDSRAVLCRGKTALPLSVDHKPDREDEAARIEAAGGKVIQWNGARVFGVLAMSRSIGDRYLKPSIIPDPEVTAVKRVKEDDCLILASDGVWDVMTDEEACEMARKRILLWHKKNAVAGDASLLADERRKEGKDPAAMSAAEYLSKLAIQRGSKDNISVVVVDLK
Substitution,relative binding score [%]
V136R,61.6
N165T,59.7
G81Y,67.9
V137G,1.86
V70P,95.8
D65Q,97.3
I79Y,102
R132M,101
S171Y,91
S80Y,85.8
D96G,84
T173C,100

# Other studies, line by line — technique: cross-linking MS
Molecule,partner,matrix,notes,added,measurement,value
"NDUFS2 (Homo sapiens, UniProt O75306)","NDUFA10 (Homo sapiens, UniProt O95299)",cell fractions,,DSSO,cross-linked residues,K437 to K277
"SNW1 (Homo sapiens, UniProt Q13573)","SNRNP40 (Homo sapiens, UniProt Q96DI7)",cell fractions,,DSSO,cross-linked residues,K170 to K349
"DNAH6 (Homo sapiens, UniProt Q9C0G6)","CAPN11 (Homo sapiens, UniProt Q9UMQ6)",cell fractions,,DMTMM,cross-linked residues,K2952 to E507
"NSMCE1 (Homo sapiens, UniProt Q8WV22)","NSMCE3 (Homo sapiens, UniProt Q96MG7)",,hits only,,interaction screen,cross-linked

# Excerpt of the above (block 5):
Substitution,relative binding score [%]
D65Q,97.3
S80Y,85.8
V70P,95.8
T173C,100
